# Assay results collected from several papers.
# Every numbered part comes from another study and shows a few of its results, in no order.

# Study 1
# Cell line: HEK-293T/ACE2
# Concentration: 10 µM
# Time: 16 h
# Baseline: vehicle
SMILES,viability
O=c1oc2ccccc2c(O)c1Cc1c(O)c2ccccc2oc1=O,99.7%
COc1ccccc1OCC(O)COC(N)=O (stereo not drawn),98.4%
Nc1ccc(/N=N/c2ccccc2)c(N)n1,105%
CN(C)[C@@H]1C(O)=C(C(N)=O)C(=O)[C@@]2(O)C(O)=C3C(=O)c4c(O)cccc4[C@@](C)(O)[C@H]3C[C@@H]12,99.7%

# Study 2
# Target: RNA binding protein fox-1 homolog 2, RRM domain, GST-SBP tag (RBFOX2, Homo sapiens, UniProt O43251-10, residues 100-194)
# Technique: RNA Bind-n-Seq
# Molecule type: RNA
# Matrix: in vitro
# Concentration: 365 nM
# Notes: natural RNA segment, single round, ends assumed
# Baseline: no-protein control
# Reading: higher = stronger binding
# Constant ends, left off below: GGGAGUUCUACAGUCCGACGAUC … UGGAAUUCUCGGGUGCCAA
# Target sequence (chain): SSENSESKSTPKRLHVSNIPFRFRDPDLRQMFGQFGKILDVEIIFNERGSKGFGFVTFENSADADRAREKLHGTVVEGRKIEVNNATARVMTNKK
Strand,RBNS enrichment (R)
AUUGCUCAUUUGUAAAAUUGUCCUAAUCUUUCCUAGCUUUUUAAUAGUUAAUAUUAGAAACUCUUUAAUAGUUUUCCUUUCAGUUUGUGAGCUCUUCUCUGUCGCCCUGA,0.515
GGUGGAGCCGUGAAGGAGGCCGAGCUGCAGCUCUGGCUGCUGCUUGGCCUCCUGCUCCAAGACCCUCCCGAGUCCCCGGAAAUGGAGAGUGCAGUUCUUGGGCCCAGCCU,0.457
CAGAAGCAGGGCUCCACCCAGGCCUUCCCUUGGAGUCGGUGCAUCCAUGGGCUGCUAGACUCUUGCGGGUAGAGUCUCCCCUGGACUUAGCAUUGUGAGAUGGACUCAGC,0.582
GCUGGGACCUAUAACGUCUUAGGUGCAACAAGGACCCUACCAGAGCUCCUGGGUGGCUUUGUGUGAGGGGACUGAACGCAGACAAACCACAGCCUGCUUCUAAUACCUUC,0.356
AUACAUGUAGAGUUCCUAGCAAAGUGGGCGCCUUUCUCGUCCACAGCAUUUAAAGAGAGGAAGGAGAACCAUCCUGGACACUCCGGGCUGUGCAUGUUUAAAGAAAUGUC,27.8
AUCAUGAAGGUCACAGUUGUGGUACUGUUAUUGAUAAUAAUAUAGGGUUUUUUUCUGCCUAAGUUUUACCUGUUUCACCAGUGUUUCAGCCCUUGACUGCCCCUCCUAUG,0.379
UCCCAAGUCCGUGAUUUCAGUUUUUCUUUUAUGGUUUCAUUGUUUGUAGUUGCCUUUGGGUUUUUGUCUUUGUUUUUCUGUCUUUUGUUAAAUCUGCUCUUAAAGUUCAC,16.3
UUUUCAUCUGAUUAUGUUAGGCCCUAGCUCUAGGUCAGCCCUGCUGGGCCCUUGAGAGGGGCUCUGUGGCUGCAGAGCUGUUUUUACCCUGACAACUGGGUUUGUCCUCC,0.226

# Study 3
# Target: Interferon regulatory factor 5, full length, phosphomimetic (IRF5, Homo sapiens, UniProt Q13568-2, residues 1-514, S451D/S453D/S456D/S462D)
# Technique: protein-binding microarray
# Molecule type: double-stranded DNA, one strand shown
# Matrix: in vitro
# Concentration: 940 nM top
# Notes: 60-bp whole probe
# Added: salmon DNA 0.4 mg/ml
# Baseline: random background probes
# Reading: higher = stronger binding
# Constant ends, left off below: GCCTAGCAC … GTCTTGATTCGCTTGACGCTGCTG
Strand,fitted relative affinity [z-score]
GACGAACTGACTATCGAGACGTGCTAG,-0.156
GACGAACTGGGCTTTCGAGACGTGCTA,-0.194
GACGGCCTGGGTTTCGGGACGTGCTAG,2.99
GACGGTCTCGGACTTGGGACGTGCTAG,0.744
GACGATCTCAGTATCGATACGTGCTAG,5.41
CCAGACTGCAGAGCAAGATCGTGCTAG,-0.35
GACGATAACGGGACTGGAGACGTGCTA,-0.369
GACGGTCACCTTATCCTGACGTGCTAG,0.223

# Study 4
# Target: Replicase polyprotein 1ab, nsp13 helicase (rep, Severe acute respiratory syndrome coronavirus 2, UniProt P0DTD1)
# Mode: inhibitor
# Concentration: 20 µM
Compound,inhibition [%]
N#Cc1c(Oc2ccc(F)c(NC(=O)Cc3cccc(C(F)(F)F)c3)c2)ccc2nc(NC(=O)C3CC3)sc12,4.98
CC(C)(C)c1nc(-c2cccc(NS(=O)(=O)c3c(F)cccc3F)c2F)c(-c2ccnc(N)n2)s1,2.92
NCCCCCc1c[nH]cn1,-3.93
CO/N=C(\C(=O)N[C@@H]1C(=O)N2C(C(=O)O)=CCS[C@H]12)c1csc(N)n1,-0.58
CC1(S(=O)(=O)O)CC(=O)c2ccccc2C1=O (stereo not drawn),0.24
Cc1cccc(C(=O)NCN2CCN(c3ccccc3C#N)CC2)c1,5.34
COC(=O)c1ccccc1NC(=O)c1ccc(F)cc1,-3.13
CCC(=O)NC1CCc2cccc(OC)c2C1 (stereo not drawn),0.2
CC(O)CCCCn1c(=O)c2c(ncn2C)n(C)c1=O (racemic),1.84
Cc1c(Cc2ccc3ccccc3n2)c2cc(F)ccc2n1CC(=O)O,2.04
CN(C)CCc1c[nH]c2ccc(CS(=O)(=O)N3CCCC3)cc12,-2.93
O=C1CN2Cc3c(ccc(Cl)c3Cl)N=C2N1,1.21
Cc1ccc(Cl)c(Nc2ccccc2C(=O)O)c1Cl,8.57
COc1cc(-c2ccc(/N=N/c3ccc4c(S(=O)(=O)O)cc(S(=O)(=O)O)c(N)c4c3O)c(OC)c2)ccc1/N=N/c1ccc2c(S(=O)(=O)O)cc(S(=O)(=O)O)c(N)c2c1O,103
CCCCC/C=C\C/C=C\C/C=C\C/C=C\CCCC(=O)Nc1ccc(O)cc1,-1.29
Cc1nnc2ccc(-c3cccc(C(F)(F)F)c3)nn12,0.38
CCNC(=O)CC[C@H](N)C(=O)O,1.59
CCN(CC)CCNC(C(=O)OCCC(C)C)c1ccccc1 (stereo not drawn),5.21
CNC(=N)NCCC[C@H](N)C(=O)O,0.68
Nc1nc(OCC2CCCCC2)c2[nH]cnc2n1,0.3
O=C1CN(/N=C/c2ccc([N+](=O)[O-])o2)C(=O)N1,4.82
CCOC(=O)Nc1ccc2c(c1)N(C(=O)CCN(CC)CC)c1ccccc1S2,4.62
CNCCCN1c2ccccc2CCc2ccccc21,4.46
CC(C)NNC(=O)c1ccncc1,4.06
OC[C@H]1O[C@@H](n2cnc3c(N[C@H]4CCC[C@@H]4O)ncnc32)[C@H](O)[C@@H]1O,2.08

# Study 5
# Target: Sal-like protein 4, full length isoform A (SALL4, Homo sapiens, UniProt Q9UJQ4, residues 1-1053)
# Chain of UniProt Q9UJQ4 (whole entry, looked up): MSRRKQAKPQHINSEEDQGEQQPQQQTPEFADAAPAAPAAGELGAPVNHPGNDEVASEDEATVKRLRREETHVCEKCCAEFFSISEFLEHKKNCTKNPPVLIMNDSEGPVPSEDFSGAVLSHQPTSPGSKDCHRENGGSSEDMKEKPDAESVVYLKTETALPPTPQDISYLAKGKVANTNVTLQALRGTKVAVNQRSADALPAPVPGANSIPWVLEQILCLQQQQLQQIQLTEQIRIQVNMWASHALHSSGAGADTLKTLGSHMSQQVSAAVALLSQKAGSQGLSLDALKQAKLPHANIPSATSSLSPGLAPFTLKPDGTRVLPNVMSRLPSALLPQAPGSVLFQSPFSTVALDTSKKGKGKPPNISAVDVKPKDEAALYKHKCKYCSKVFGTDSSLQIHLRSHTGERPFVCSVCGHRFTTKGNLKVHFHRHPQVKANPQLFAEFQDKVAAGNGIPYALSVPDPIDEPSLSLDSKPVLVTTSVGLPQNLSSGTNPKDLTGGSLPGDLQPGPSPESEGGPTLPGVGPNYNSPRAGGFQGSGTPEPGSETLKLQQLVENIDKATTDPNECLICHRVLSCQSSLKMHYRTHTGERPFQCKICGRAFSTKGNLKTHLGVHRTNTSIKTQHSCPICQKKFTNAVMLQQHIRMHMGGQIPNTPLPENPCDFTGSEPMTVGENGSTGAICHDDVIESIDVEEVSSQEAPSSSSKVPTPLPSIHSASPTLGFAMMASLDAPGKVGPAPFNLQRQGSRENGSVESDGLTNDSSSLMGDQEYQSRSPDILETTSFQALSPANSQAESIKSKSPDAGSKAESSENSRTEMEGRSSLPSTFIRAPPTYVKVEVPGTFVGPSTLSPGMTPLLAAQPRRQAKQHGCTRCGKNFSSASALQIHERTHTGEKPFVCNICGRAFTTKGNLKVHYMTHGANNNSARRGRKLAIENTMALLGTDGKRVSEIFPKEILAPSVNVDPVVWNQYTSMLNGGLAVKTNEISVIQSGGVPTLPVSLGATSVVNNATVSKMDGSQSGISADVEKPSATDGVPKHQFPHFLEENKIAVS
# Technique: universal PBM
# Molecule type: double-stranded DNA, one strand shown
# Matrix: in vitro
# Concentration: 600 nM
# Notes: 8-mer, flanks averaged, mean of replicates
# Reading: higher = stronger binding
Strand,E-score
AGTGGGAC,-0.12
AATATAAC,0.384
CTGGCGTC,-0.268
CAACCGAA,-0.0179
ACCTCGGA,-0.0783
GCTCTTAC,-0.109
CTCAAGAG,-0.149
ATTGACTC,0.089

# Study 6
# Target: Replicase polyprotein 1ab, main protease (rep, Severe acute respiratory syndrome coronavirus 2, UniProt P0DTD1)
# Read-out: enzyme activity
# Mode: inhibitor
# Concentration: 20 µM
Compound,inhibition
Cc1ccc(S(=O)(=O)/C=C/C#N)cc1,-12.5%
C[n+]1c2cc(N)ccc2cc2ccc(N)cc21,-1.1%
S=C=Nc1cccc(NC(=S)NCCCCNC(=S)Nc2cccc(N=C=S)c2)c1,92%
O=C(NC(=S)N1CCCc2ccccc21)c1ccccc1,68.6%

# Repeated from above (study 2):
Strand,RBNS enrichment (R)
AUCAUGAAGGUCACAGUUGUGGUACUGUUAUUGAUAAUAAUAUAGGGUUUUUUUCUGCCUAAGUUUUACCUGUUUCACCAGUGUUUCAGCCCUUGACUGCCCCUCCUAUG,0.379
AUUGCUCAUUUGUAAAAUUGUCCUAAUCUUUCCUAGCUUUUUAAUAGUUAAUAUUAGAAACUCUUUAAUAGUUUUCCUUUCAGUUUGUGAGCUCUUCUCUGUCGCCCUGA,0.515
CAGAAGCAGGGCUCCACCCAGGCCUUCCCUUGGAGUCGGUGCAUCCAUGGGCUGCUAGACUCUUGCGGGUAGAGUCUCCCCUGGACUUAGCAUUGUGAGAUGGACUCAGC,0.582
